Experimental data pooled from the literature.
Compare with care: the assays were run in different laboratories. Converted amounts (≈) assume the structure as drawn.

Molecule	target or system	test	test system	setting	scale	quantity	value
Nc1ncnc2c([C@@H]3N[C@H](CO)[C@@H](O)[C@H]3O)c[nH]c12	Marburg marburgvirus	viral glycoprotein surface expression	HeLa, Musoke	100 µM	–	inhibition	98.9%
Plantazolicin	Bacillus anthracis	–	Sterne	–	–	MIC	2 µg/mL
CSc1nc(Cl)cc(Sc2nnc(-c3cc(C(F)(F)F)cc(C(F)(F)F)c3)[nH]2)n1	Bacillus anthracis	–	Sterne	16 h	–	MIC	3.1 µM
CCCCCCCCCCCCCCCc1cc(O)cc(O)c1	Bacillus anthracis	–	34F2	–	–	IC50	46.8 µM
CCCCCCCCCCCCN(C)C(=O)CP(=O)(O)O	Bacillus anthracis	–	Vollum	–	–	MIC90	0.097 µg/mL (≈ 0.302 µM)
Cn1c(=O)ccc2ccc(F)c(CCNC[C@H]3CN(c4cnc5c(n4)NC(=O)CO5)C(=O)O3)c21	Bacillus anthracis	–	–	–	–	MIC90	< 0.015 µg/mL
Cn1cnc(Cn2c(=O)[nH]/c(=N\c3cc4cn(C)nc4cc3Cl)n(Cc3cc(F)c(F)cc3F)c2=O)n1	–	–	human, severe renal impairment	oral, 375 mg	–	dry mouth TEAE, Moderate severity	0%
O=C(NC[C@H]1CN(C(=O)c2cc(O)ccc2F)CC[C@@]12CCOC2)c1ccc2n[nH]nc2c1	Replicase polyprotein 1ab, main protease (rep, Severe acute respiratory syndrome coronavirus 2, UniProt P0DTD1)	enzyme activity, inhibitor	–	5 µM	–	inhibition	13.8%
FC(F)(F)c1cc(-c2nnc(Sc3cc(Cl)nc(Sc4ccccc4)n3)[nH]2)cc(C(F)(F)F)c1	Bacillus anthracis	–	Sterne	16 h	–	MIC	1.6 µM
COc1ccc2cc1Oc1cc(ccc1OC)CCC(N[C@@H]1CCCc3ccccc31)CCCC2 (stereo partly drawn)	Bacillus anthracis	–	Sterne 34F2	–	–	MIC	> 100 µg/mL
CC[C@H](C)[C@H](NC(=O)[C@H](CC(C)C)NC(=O)[C@H](Cc1c[nH]c2ccccc12)NC(=O)[C@H](CCC(N)=O)NC(=O)[C@@H](NC(=O)[C@H](Cc1ccccc1)NC(=O)[C@H](C)NC(=O)[C@H](CCCCNC(=O)COCCOCCNC(=O)COCCOCCNC(=O)CC[C@H](NC(=O)CCCCCCCCCCCCCCCCCCC(=O)O)C(=O)O)NC(=O)[C@H](CCC(N)=O)NC(=O)[C@H](C)NC(=O)[C@@H](NC(=O)[C@H](CCCCN)NC(=O)[C@H](CC(=O)O)NC(=O)[C@H](CC(C)C)NC(=O)C(C)(C)NC(=O)[C@@H](NC(=O)[C@H](CO)NC(=O)[C@H](Cc1ccc(O)cc1)NC(=O)[C@H](CC(=O)O)NC(=O)[C@H](CO)NC(=O)[C@@H](NC(=O)[C@H](Cc1ccccc1)NC(=O)[C@@H](NC(=O)CNC(=O)[C@H](CCC(=O)O)NC(=O)C(C)(C)NC(=O)[C@@H](N)Cc1ccc(O)cc1)[C@@H](C)O)[C@@H](C)O)[C@@H](C)CC)[C@@H](C)CC)C(C)C)C(=O)N[C@@H](C)C(=O)NCC(=O)NCC(=O)N1CCC[C@H]1C(=O)N[C@@H](CO)C(=O)N[C@@H](CO)C(=O)NCC(=O)N[C@@H](C)C(=O)N1CCC[C@H]1C(=O)N1CCC[C@H]1C(=O)N1CCC[C@H]1C(=O)N[C@@H](CO)C(N)=O	–	–	healthy subjects	1.5 mg, multiple ascending dose	–	severe hypoglycaemia	0%
CC(C)CCCCCCCCCCCCCCc1cc(O)cc(O)c1	Bacillus anthracis	–	34F2	–	–	IC50	20.5 µM
CCCCCCCCCCCCCCNC(=O)CP(=O)(O)O	Bacillus anthracis	–	Vollum	–	–	MIC90	1.56 µg/mL (≈ 4.65 µM)
CC(C)C(C)CCCCCCCCCCCc1cc(O)cc(O)c1 (stereo not drawn)	Bacillus anthracis	–	34F2	–	–	IC50	26.8 µM
CNC(=O)[C@@H](NC(=O)[C@H](CC(C)C)[C@H](O)C(=O)NO)C(C)(C)C	C2C12	–	–	1 µM, added: MP venom	reference: venom alone	viability difference	14.9%

Excerpt of the above:
Molecule	target or system	test	test system	setting	scale	quantity	value
CC(C)C(C)CCCCCCCCCCCc1cc(O)cc(O)c1 (stereo not drawn)	Bacillus anthracis	–	34F2	–	–	IC50	26.8 µM
CNC(=O)[C@@H](NC(=O)[C@H](CC(C)C)[C@H](O)C(=O)NO)C(C)(C)C	C2C12	–	–	1 µM, added: MP venom	reference: venom alone	viability difference	14.9%
